Measured values pooled from the literature.
Numbered parts are unrelated; each lists some results of a single study. “And” joins repeats or separate records; there may be more than shown.
UniProt P16220, sequence (whole entry, looked up): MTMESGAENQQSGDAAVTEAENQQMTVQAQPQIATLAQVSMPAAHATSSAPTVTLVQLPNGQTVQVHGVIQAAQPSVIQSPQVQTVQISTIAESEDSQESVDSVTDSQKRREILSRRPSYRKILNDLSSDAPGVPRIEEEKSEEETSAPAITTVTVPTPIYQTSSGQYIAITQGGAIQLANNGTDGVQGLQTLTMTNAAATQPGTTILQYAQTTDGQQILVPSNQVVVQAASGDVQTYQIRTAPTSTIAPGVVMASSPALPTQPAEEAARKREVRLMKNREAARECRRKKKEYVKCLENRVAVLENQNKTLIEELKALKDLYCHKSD
UniProt P01106, sequence (368-449, looked up): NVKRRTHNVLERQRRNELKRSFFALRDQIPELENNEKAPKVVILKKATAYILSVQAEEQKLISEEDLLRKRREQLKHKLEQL

Sample 1
Cell line: HEK-293T/ACE2
Concentration: concentration not given
Time: 16 (unit not given)
Baseline: vehicle
SMILES	viability
CCC(=O)O[C@H]1CC[C@H]2[C@@H]3CCC4=CC(=O)CC[C@]4(C)[C@H]3CC[C@]12C	98.3%
CC(C)OC(=O)CCC/C=C\C[C@@H]1[C@@H](CC[C@@H](O)CCc2ccccc2)[C@H](O)C[C@@H]1O	98.2%
COC(=O)N[C@H](C(=O)N[C@@H](Cc1ccccc1)[C@@H](O)CN(Cc1ccc(-c2ccccn2)cc1)NC(=O)[C@@H](NC(=O)OC)C(C)(C)C)C(C)(C)C	96.3%
O=P(O)(O)C(O)(Cn1ccnc1)P(=O)(O)O	94.3%

Sample 2
Target: Centromere-binding protein 1, full length, His-tagged (CBF1, Saccharomyces cerevisiae, UniProt P17106, residues 1-351)
UniProt P17106, sequence (whole entry, looked up): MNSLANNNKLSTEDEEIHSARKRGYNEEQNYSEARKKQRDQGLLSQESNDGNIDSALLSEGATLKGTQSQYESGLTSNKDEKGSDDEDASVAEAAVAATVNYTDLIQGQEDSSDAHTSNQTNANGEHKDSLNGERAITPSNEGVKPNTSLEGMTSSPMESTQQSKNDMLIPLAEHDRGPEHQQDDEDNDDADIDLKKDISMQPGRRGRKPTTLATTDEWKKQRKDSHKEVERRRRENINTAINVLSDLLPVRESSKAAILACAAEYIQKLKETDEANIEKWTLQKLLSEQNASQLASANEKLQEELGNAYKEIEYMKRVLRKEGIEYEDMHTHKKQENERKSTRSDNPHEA
Technique: competition protein-binding microarray
Molecule type: double-stranded DNA, one strand shown
Medium: in vitro
Concentration: 2 µM
Setting: whole 60-bp probe, lowest competitor level
Together with: Pho4 competitor, 0.05 µM
Direction: higher = stronger binding
Oligonucleotide	fluorescence intensity [a.u.]
CCGTCGAAACAATGGCAGGTGAAGCAGTTTCGGAATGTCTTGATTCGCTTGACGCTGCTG	83.9
CTAACGAAGGTTTGCCCGGTGGGTGACAAGCCAAGTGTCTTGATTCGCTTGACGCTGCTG	58
AAATTACTAAGTTGTCACGACACTTACCCCGTATGAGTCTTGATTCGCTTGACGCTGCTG	225
AAAGCGGTAATTTGAAGGGTGGGTGCAGATATCTATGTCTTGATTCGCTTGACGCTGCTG	72.2
CTGTTCTCTGTAATGCATGTGGCCTCTTCCTGAAGTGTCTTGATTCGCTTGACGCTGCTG	102
GGTGTGCGGTTGCGGGGCGTGGGTATGCGCGCCGTTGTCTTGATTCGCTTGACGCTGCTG	94.1
TGGTTGCCAGCTCGCTATGTGACGGGCTTAAAGTACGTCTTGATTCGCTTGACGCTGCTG	69.6
AACGGTTGATTCATTAATGTGATGACTGTTCACCCTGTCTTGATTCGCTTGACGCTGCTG	87.1

Sample 3
Target: Sal-like protein 4, full length isoform A (SALL4, Homo sapiens, UniProt Q9UJQ4, residues 1-1053)
UniProt Q9UJQ4, sequence (whole entry, looked up): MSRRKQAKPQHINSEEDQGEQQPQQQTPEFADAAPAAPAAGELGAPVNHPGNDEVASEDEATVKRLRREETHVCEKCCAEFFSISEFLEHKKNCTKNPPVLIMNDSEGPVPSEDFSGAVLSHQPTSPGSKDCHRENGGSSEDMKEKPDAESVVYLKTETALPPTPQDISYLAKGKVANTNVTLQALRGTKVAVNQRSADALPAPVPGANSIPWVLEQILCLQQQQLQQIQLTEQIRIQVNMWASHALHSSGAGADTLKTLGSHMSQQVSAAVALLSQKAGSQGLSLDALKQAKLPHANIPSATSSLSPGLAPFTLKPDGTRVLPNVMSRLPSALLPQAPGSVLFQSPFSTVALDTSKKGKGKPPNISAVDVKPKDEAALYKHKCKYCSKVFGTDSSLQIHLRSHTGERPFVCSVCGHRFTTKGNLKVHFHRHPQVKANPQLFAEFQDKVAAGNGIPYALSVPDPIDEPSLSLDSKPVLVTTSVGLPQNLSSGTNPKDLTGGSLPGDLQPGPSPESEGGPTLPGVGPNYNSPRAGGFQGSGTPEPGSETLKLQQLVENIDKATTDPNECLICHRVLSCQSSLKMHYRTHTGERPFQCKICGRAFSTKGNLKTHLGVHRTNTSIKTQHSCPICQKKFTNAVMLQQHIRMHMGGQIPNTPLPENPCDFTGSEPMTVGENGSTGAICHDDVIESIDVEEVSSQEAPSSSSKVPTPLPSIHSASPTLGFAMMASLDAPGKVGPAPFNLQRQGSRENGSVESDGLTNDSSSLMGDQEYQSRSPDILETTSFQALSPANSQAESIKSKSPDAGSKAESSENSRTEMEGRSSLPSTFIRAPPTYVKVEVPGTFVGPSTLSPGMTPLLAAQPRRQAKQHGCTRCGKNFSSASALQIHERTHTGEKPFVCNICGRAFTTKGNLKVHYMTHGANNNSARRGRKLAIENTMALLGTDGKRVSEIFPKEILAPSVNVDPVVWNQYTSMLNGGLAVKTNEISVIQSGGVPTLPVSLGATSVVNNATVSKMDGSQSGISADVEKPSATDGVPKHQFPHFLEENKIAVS
Technique: universal PBM
Molecule type: double-stranded DNA, one strand shown
Medium: in vitro
Concentration: 600 nM
Setting: 8-mer, flanks averaged, mean of replicates
Direction: higher = stronger binding
Oligonucleotide	E-score
CAAAAGTA	0.252
ATCGAGTG	-0.0187
GGATTGCA	0.015
ACAGGAGA	0.0221
CTAAGCAC	-0.0852
AATACCGC	-0.119
AGCTACTA	0.114
CGTCACTA	-0.0412

Sample 4
Target: Replicase polyprotein 1ab, polymerase (rep, Severe acute respiratory syndrome coronavirus 2, UniProt P0DTD1)
Read-out: enzyme activity
Action: inhibitor
Concentration: 20 µM
Structure (SMILES)	inhibition
CCCC(CCC)C(=O)O	1.81%
CN1Cc2c(C(=O)OC(C)(C)C)ncn2-c2ccsc2C1=O	0.95%
O=C(OC(C(F)(F)F)C(F)(F)F)N1CCN(Cc2cccc(Oc3ccccc3)c2)CC1	18%
CCCC[C@@H](NC(=O)[C@@H](Cc1cn(C(=O)OC)c2ccccc12)NC(=O)[C@H](CC(C)(C)C)NC(=O)N1[C@H](C)CCC[C@@H]1C)C(=O)O	1.47%
O=P(O)(O)C(O)(Cn1ccnc1)P(=O)(O)O	-0.27%
CC(C)(c1ccc(O)cc1)c1ccc(O)cc1	2.95%
O=C(O)c1ccc(OCCn2ccnc2)cc1	-1.95%
COc1ccc(COc2ccc(Cc3cnc(N)nc3N)cc2OC)cc1	8.62%
C[C@H](CCC(=O)O)[C@H]1CC[C@H]2[C@@H]3[C@@H](O)C[C@@H]4C[C@H](O)CC[C@]4(C)[C@H]3CC[C@]12C	4.64%
COc1cc2nccc(Oc3ccc(NC(=O)C4(C(=O)Nc5ccc(F)cc5)CC4)cc3)c2cc1OC	7.58%
CC1(C)S[C@@H]2[C@H](NC(=O)[C@H](C(=O)O)c3ccsc3)C(=O)N2[C@H]1C(=O)O	-0.41%
CC(=O)OCC(=O)[C@@]1(O)CC[C@H]2[C@@H]3CCC4=CC(=O)CC[C@]4(C)[C@H]3C(=O)C[C@@]21C	-9.03%
Cc1cc(C(=O)N2Cc3cnn(C)c3Nc3ccccc32)ccc1CNC(=O)N1CCC[C@H]1C(=S)N1CCCN(C)CC1	-0.77%
FC(F)(F)c1ccccc1-c1cc(C(F)(F)F)c2nc(C3=NOC4(CCCCC4)C3)[nH]c2c1	0.22%
COc1ccc(CCC(=O)Nc2nc3ccc(Cl)cc3s2)cc1OC	-6.68%
Cc1sc2c(c1C)C(c1ccc(Cl)cc1)=N[C@@H](CC(=O)Nc1ccc(O)cc1)c1nnc(C)n1-2	0.77%
CO[C@H]1C[C@@H]2CC[C@@H](C)[C@@](O)(O2)C(=O)C(=O)N2CCCC[C@H]2C(=O)O[C@H]([C@H](C)C[C@@H]2CC[C@H](n3cnnn3)[C@H](OC)C2)CC(=O)[C@H](C)/C=C(\C)[C@@H](O)[C@@H](OC)C(=O)[C@H](C)C[C@H](C)/C=C/C=C/C=C/1C	33.3%
CC[C@]12CCCN3CCc4c(n(c5ccccc45)[C@@](O)(C(=O)OC)C1)[C@@H]32	-0.43%
CC(=O)N[C@@H](CCC(N)=O)C(=O)O	5.97%
CC(=O)Nc1cccc2c1c(Sc1ccc(Cl)cc1)c(C)n2CC(=O)O	-1.84%
COc1cc([C@H]2Oc3cc([C@H]4Oc5cc(O)cc(O)c5C(=O)[C@@H]4O)ccc3O[C@@H]2CO)ccc1O	-9.6%
CN(C)c1nc(N(C)C)nc(N(C)C)n1	-1.51%
NC(N)=Nc1nc(CSCCN/C=N/S(=O)(=O)c2ccc(Br)cc2)cs1	1.57%
C=CC1=C(C(=O)O)N2C(=O)[C@@H](NC(=O)/C(=N\OCC(=O)O)c3csc(N)n3)[C@H]2SC1	-15.3%
CN1CCN(CCOc2cc(OC3CCOCC3)c3c(Nc4c(Cl)ccc5c4OCO5)ncnc3c2)CC1	0.5%

Sample 5
Organism: SARS-CoV-2
Read-out: cytopathic effect
Cell line: Vero E6
Concentration: 10 µM
SMILES	inhibition
Cc1ccc(S(=O)(=O)/C=C/C#N)cc1	-32.6%
O=C(O)[C@@H](S)[C@@H](S)C(=O)O	6.5% and 0.36%
O=NN(CCCl)C(=O)NC1CCCCC1	3%

Mixed results
Technique: protein-binding microarray
Molecule type: double-stranded DNA, one strand shown
Medium: in vitro
Concentration: not given
Setting: k-mer, scored over probes, only values ≥0.25
Direction: higher = stronger binding
MAX full length: Protein max, full length (MAX, Homo sapiens, UniProt P61244-2, residues 1-151)
Oligonucleotide	target	E-score
AGTGCATG	MAX full length	0.308
CACACGAC	Myc proto-oncogene protein, bHLH-zipper, MAX partner unstated (MYC, Homo sapiens, UniProt P01106, residues 368-449)	0.271
ACGACATG	MAX full length	0.272
CCACGTC	Cyclic AMP-responsive element-binding protein 1 (CREB1, Homo sapiens, UniProt P16220, residues 1-327, full length assumed)	0.327
